Measurements from different studies.
Compare with care: the assays were run in different laboratories. “And” joins repeats or separate records; there may be more than shown. Numbers after ± are the reported error.
PFF0160c E182D: Dihydroorotate dehydrogenase (quinone), mitochondrial (PFF0160c, Plasmodium falciparum, UniProt Q08210, E182D)
Aryl hydrocarbon receptor: Aryl hydrocarbon receptor (Danio rerio, UniProt Q9YGV3)
ACHE: Acetylcholinesterase (ACHE, Homo sapiens, UniProt P22303)
Chain of UniProt P22303 (whole entry, looked up): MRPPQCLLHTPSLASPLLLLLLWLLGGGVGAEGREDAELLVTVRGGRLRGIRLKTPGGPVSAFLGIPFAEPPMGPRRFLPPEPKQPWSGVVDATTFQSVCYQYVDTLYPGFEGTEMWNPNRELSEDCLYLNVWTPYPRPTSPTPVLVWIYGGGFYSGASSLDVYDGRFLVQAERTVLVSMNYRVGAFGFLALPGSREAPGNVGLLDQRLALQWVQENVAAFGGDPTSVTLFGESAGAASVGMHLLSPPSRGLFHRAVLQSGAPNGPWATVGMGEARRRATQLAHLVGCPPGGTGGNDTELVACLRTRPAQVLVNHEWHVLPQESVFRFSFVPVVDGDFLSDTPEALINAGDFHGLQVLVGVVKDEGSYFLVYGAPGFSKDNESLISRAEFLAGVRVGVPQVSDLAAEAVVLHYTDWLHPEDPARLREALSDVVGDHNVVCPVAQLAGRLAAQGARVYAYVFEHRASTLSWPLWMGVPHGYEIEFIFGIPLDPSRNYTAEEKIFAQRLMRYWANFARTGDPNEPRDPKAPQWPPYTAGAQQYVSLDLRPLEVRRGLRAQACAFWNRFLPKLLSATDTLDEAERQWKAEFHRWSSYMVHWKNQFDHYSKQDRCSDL
Chain of UniProt Q53H76 (whole entry, looked up): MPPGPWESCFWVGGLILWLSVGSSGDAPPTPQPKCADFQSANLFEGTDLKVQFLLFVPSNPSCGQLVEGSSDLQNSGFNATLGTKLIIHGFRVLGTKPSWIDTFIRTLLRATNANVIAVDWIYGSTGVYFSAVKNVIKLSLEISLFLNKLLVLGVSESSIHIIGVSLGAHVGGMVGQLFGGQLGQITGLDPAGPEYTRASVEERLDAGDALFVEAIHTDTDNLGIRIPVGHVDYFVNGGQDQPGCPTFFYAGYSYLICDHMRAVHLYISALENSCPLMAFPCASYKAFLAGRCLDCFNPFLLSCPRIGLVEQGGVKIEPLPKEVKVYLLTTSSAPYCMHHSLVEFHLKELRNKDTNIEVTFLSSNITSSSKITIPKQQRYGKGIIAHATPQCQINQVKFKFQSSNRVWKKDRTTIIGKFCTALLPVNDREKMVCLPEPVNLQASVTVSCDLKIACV
Chain of UniProt P35869 (whole entry, looked up): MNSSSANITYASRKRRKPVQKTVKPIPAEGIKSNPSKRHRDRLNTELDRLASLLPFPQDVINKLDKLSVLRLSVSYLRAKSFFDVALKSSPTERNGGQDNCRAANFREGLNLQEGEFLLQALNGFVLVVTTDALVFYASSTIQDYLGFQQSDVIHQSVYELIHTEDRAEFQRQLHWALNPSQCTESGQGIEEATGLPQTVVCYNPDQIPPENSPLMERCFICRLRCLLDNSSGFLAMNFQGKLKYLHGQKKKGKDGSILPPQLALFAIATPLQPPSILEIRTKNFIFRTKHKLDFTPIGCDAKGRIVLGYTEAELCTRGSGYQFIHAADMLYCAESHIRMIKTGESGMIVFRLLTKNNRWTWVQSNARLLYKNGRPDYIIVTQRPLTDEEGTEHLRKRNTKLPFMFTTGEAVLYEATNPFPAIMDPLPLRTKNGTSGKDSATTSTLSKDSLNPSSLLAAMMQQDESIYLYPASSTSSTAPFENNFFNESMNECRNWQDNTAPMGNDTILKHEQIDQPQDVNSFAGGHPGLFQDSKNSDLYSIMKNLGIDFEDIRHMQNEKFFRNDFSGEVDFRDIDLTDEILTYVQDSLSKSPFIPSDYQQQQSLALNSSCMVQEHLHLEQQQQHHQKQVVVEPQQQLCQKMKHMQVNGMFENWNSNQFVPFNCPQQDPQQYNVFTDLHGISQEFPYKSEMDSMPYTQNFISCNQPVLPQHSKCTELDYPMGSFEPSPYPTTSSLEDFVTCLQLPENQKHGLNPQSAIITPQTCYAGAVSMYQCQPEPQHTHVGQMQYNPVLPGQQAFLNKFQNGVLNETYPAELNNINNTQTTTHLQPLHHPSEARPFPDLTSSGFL
Chain of UniProt Q8N752 (whole entry, looked up): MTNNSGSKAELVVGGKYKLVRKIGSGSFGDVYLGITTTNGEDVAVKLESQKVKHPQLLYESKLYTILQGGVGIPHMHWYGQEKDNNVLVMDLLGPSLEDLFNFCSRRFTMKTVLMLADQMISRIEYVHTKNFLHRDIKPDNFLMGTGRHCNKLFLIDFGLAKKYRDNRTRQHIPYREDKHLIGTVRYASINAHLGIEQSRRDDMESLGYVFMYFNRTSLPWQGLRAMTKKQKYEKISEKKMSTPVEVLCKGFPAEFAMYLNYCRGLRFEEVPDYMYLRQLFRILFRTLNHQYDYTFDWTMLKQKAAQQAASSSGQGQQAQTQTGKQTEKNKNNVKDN
Chain of UniProt Q07440 (whole entry, unmodified, looked up): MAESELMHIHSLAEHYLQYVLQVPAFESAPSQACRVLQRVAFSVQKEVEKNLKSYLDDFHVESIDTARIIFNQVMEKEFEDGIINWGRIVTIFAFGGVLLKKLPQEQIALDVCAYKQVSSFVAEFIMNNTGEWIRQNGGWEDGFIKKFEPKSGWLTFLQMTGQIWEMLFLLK
Chain of UniProt Q96D53 (whole entry, looked up): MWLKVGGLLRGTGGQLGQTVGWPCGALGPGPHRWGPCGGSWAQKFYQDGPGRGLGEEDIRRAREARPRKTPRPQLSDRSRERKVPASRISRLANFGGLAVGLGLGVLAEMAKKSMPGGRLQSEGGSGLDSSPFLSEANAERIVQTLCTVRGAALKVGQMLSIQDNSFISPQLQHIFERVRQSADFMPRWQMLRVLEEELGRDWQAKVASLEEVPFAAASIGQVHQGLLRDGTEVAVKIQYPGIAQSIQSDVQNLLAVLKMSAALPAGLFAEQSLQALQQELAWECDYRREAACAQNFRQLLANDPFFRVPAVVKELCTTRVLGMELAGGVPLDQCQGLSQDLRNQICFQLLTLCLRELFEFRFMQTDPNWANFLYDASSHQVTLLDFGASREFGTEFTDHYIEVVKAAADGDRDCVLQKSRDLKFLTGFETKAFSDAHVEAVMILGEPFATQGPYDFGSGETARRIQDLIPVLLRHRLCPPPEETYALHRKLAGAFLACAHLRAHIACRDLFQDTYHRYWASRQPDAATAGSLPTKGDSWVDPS
Chain of UniProt P14868 (whole entry, looked up): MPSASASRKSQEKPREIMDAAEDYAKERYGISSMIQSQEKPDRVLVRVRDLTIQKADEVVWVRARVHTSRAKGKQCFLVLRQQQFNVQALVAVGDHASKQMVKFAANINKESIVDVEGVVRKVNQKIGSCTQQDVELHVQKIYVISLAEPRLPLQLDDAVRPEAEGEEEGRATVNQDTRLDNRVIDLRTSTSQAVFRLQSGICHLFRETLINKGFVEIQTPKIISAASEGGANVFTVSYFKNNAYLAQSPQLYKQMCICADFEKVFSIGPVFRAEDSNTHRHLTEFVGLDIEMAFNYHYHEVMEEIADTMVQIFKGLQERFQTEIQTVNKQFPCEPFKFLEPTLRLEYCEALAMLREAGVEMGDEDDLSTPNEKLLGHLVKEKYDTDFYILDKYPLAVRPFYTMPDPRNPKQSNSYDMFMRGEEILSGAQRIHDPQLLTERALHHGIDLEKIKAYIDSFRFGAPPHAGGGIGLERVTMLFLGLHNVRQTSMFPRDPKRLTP
Chain of UniProt P00942 (whole entry, unmodified, looked up): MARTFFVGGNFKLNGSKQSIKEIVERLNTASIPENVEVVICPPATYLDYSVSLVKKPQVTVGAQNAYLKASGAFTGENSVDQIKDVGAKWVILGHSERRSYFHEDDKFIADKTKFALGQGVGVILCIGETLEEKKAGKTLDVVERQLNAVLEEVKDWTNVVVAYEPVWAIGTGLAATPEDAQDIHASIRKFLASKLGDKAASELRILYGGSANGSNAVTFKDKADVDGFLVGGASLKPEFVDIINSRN
Chain of UniProt P46095 (whole entry, looked up): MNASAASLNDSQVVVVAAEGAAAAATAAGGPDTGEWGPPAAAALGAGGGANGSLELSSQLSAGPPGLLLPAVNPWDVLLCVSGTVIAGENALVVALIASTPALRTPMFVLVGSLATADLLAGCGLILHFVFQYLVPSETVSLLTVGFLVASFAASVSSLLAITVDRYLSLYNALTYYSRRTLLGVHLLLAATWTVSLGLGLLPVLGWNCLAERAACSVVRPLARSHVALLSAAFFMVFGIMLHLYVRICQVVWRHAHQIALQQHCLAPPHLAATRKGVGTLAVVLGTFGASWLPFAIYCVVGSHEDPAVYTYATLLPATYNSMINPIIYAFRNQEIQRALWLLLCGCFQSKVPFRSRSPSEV
Chain of UniProt P30530 (whole entry, looked up): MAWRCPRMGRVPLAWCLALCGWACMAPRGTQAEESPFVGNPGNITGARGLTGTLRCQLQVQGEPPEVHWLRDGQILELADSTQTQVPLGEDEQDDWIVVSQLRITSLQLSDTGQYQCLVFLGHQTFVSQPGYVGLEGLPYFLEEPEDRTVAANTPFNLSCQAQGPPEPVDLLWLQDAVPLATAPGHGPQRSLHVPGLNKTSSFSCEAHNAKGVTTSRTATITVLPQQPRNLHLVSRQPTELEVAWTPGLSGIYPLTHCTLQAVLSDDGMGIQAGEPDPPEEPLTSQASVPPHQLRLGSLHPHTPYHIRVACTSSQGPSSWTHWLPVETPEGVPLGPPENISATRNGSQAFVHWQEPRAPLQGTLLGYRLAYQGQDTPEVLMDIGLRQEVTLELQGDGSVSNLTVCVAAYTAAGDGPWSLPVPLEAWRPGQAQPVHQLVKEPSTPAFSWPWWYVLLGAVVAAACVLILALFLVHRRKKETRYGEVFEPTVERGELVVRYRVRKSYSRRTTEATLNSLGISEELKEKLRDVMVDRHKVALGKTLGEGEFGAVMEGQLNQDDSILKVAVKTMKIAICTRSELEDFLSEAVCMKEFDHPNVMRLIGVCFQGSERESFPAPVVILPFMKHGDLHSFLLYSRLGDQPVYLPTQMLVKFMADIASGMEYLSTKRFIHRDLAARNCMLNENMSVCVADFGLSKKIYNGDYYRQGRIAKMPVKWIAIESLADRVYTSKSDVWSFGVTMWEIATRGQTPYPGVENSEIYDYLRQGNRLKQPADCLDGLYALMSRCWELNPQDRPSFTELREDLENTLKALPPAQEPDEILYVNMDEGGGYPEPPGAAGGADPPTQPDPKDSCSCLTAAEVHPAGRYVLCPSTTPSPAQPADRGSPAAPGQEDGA

Compound | target | assay | test system | conditions | how to read | measurement | result
O=C(O)Cc1c[nH]cn1 | SLC6A6 (Homo sapiens, UniProt P31641, Y138A) | binding, microscale thermophoresis |  | 488 nM, room temperature, together with: 50 nM labelled protein | higher = more binding | normalised MST signal | 0.0414
O=C(O)COP(=O)(O)O | TPI1 (Saccharomyces cerevisiae, UniProt P00942, Y208S) | enzyme activity, competitive inhibitor, GPDH/NADH-coupled |  | pH 4.9, 25 °C, ionic strength 0.1 NaCl, together with: glyceraldehyde 3-phosphate substrate | reference: mutant over wild type | Ki ratio | 78
CCCn1c(O)nnc1SCC(=O)Nc1cc(C(F)(F)F)ccc1Cl | PFF0160c E182D | enzyme activity, DCIP colorimetric |  |  | reference: E182D mutant over wild type | IC50 ratio | 0.9
CN1CCN(c2cc(-c3ccncc3)c(-c3ccc4ccccc4c3)nn2)CC1 | ADRA2B (Homo sapiens, UniProt P18089) | agonist, FLIPR |  | 12.5 µM |  | activation | -0.7%
COc1ccc(Nc2nn3c(-c4ccccc4)ccnc3c2C(=O)Nc2ccccc2)cc1 | α-amylase isoenzymes | native PAGE densitometry |  | 1 mg/mL | reference: untreated enzyme (band absent) | abnormal band quantity | 25.5 a.u.
O=S(=O)(O)c1ccc2c(N=Nc3c(O)ccc4ccccc34)cccc2c1 | Bcl-2-related protein A1 (Mus musculus, UniProt Q07440, C113S/P104K) | differential scanning fluorimetry |  | 100 µM |  | delta Tm | 14.8 °C
CC(=O)C1C(=O)c2ccccc2C1=O | Bile acid receptor (NR1H4, Homo sapiens, UniProt Q96RI1) | coactivator recruitment, TR-FRET |  |  |  | IC50 | inactive
CC(Oc1cccc(Cl)c1)C(=O)N1CCc2ccccc21 (centres unmarked) | PFF0160c E182D | enzyme activity, DCIP colorimetric |  |  | reference: E182D mutant over wild type | IC50 ratio | 0.3
Cc1cn([C@H]2C[C@H](O)[C@@H](COP(=O)(O)OP(=O)(O)OP(=O)(O)O)O2)c(=O)[nH]c1=O | DNA polymerase I, Klenow fragment (polA, Escherichia coli, UniProt P00582, C907S/D424A/E710Q/L744C) | nucleotide incorporation, substrate, single-turnover rapid quench |  | together with: radiolabelled primer-template DNA |  | maximum incorporation rate | 0.23 ± 0.01 s⁻¹
CC(C)(C)C(O)C(Oc1ccc(-c2ccccc2)cc1)n1cncn1 (centres unmarked) | Glideosome-associated protein 50 (GAP50, Plasmodium falciparum, UniProt Q8I2X3) | binding, surface plasmon resonance |  | 1:1 binding model |  | kon | 2.81e+06 M⁻¹ s⁻¹
Oc1ccc2ccc3cccc4ccc1c2c34 | Aryl hydrocarbon receptor | reporter gene, agonist, luciferase reporter | ZF-4 | 30000 µM | reference: vehicle control | fold change | 1.89
Cc1cc(Nc2ccc(C)c(Cl)c2)n2nc(C(F)(F)F)nc2n1 | PFF0160c E182D | enzyme activity, DCIP colorimetric |  |  | reference: E182D mutant over wild type | IC50 ratio | 5.4
Oc1ccc(-c2ccc(Cl)cc2)c(Cl)c1 | AHR (Homo sapiens, UniProt P35869) | reporter gene, antagonist | AZ-AHR cells | 24 h, together with: TCDD 4.5 nM |  | IC25 | 18 µM
CC[C@H](C)[C@H](NC(=O)CNC(=O)[C@@H](N)CCCCN)C(=O)N[C@@H](CC(C)C)C(=O)N[C@@H](CCCCN)C(=O)N[C@@H](CCCNC(=N)N)C(=O)N[C@@H](CCC(=O)O)C(=O)N[C@@H](CCCCN)C(=O)N[C@@H](CCCNC(=N)N)C(=O)N[C@@H](CC(C)C)C(=O)N[C@@H](CCCNC(=N)N)C(=O)N[C@@H](CCCNC(=N)N)C(=O)N[C@@H](CCCCN)C(=O)N[C@@H](CC(N)=O)C(=O)N[C@H](C(=O)N[C@@H](Cc1c[nH]cn1)C(=O)N[C@@H](Cc1c[nH]c2ccccc12)C(=O)N1CCC[C@H]1C(=O)N[C@@H](CCC(=O)O)C(=O)N[C@@H](CCC(=O)O)C(=O)NCC(=O)N[C@@H](CCCCN)C(=O)N[C@@H](CC(C)C)C(=O)N[C@@H](CCCNC(=N)N)C(=O)N[C@@H](CCC(=O)O)C(=O)N[C@@H](Cc1ccccc1)C(=O)N[C@@H](Cc1ccccc1)C(=O)N[C@@H](Cc1ccccc1)C(=O)N[C@@H](Cc1ccccc1)C(=O)N[C@@H](CCC(=O)O)C(=O)N[C@@H](CC(C)C)C(=O)N[C@@H](CC(=O)O)C(=O)N[C@@H](CCC(=O)O)C(=O)N[C@@H](C)C(=O)N[C@@H](CCC(=O)O)C(=O)N[C@@H](CCCNC(=N)N)C(=O)N[C@H](C(=O)N[C@@H](CC(N)=O)C(=O)N[C@H](C(=O)O)C(C)C)C(C)C)C(C)C | protein phosphatase 1 complexes | bead binding, competitive inhibitor, inhibitor bead pulldown LC-MS/MS, item: RPAP3 | HeLa and HEK293T cells, cell lysate | concentration not given | reference: compound over control | log2 fold change | -6.83
COc1cc(Nc2ncc(F)c(Nc3ccc4c(n3)NC(=O)C(C)(C)O4)n2)cc(OC)c1OC | COQ8B (Homo sapiens, UniProt Q96D53) | binding, KINOMEscan |  | 10 µM, ADCK4 kinase |  | inhibition | 100%
c1ccc2c3c(ccc2c1)-c1cccc2cccc-3c12 | Aryl hydrocarbon receptor | reporter gene, agonist, luciferase reporter | ZF-4 | 1111.11 µM | reference: vehicle control | fold change | 16.8
COc1cc(N)c(Cl)cc1C(=O)NC1CN2CCC1CC2 (centres unmarked) | G-protein coupled receptor 6 (Homo sapiens, UniProt P46095) | β-arrestin recruitment, TANGO luminescence, item: GPR6 |  | concentration not given | reference: basal luminescence | log2 fold change | 0.07
CN(C)CCOC(C)(c1ccccc1)c1ccc(Cl)cc1 (centres unmarked) | ACHE |  | biochemical | concentration not given |  | activity class | inactive

Compound | target | assay | test system | conditions | how to read | measurement | result
O=C(c1ccc(Cl)cc1)N1CCN2C(=O)N(OC(=O)N3CCOc4ccccc43)C(=O)C2C1 (centres unmarked) | Phospholipase A1 member A (PLA1A, Homo sapiens, UniProt Q53H76) | MS-based ABPP | SW-620 conditioned medium | 10 µM, 1 h, 37 °C | reference: compound over DMSO, lower = more inhibition | peptide ratio | 1.18 and 0.88
Cc1ccc2c(c1)C=CC21CCN(C2Cc3ccccc3CC2O)CC1 (racemic) | Vesicular acetylcholine transporter (Rattus norvegicus, UniProt Q62666) |  |  |  | reference: Ki sigma1 over Ki VAChT | selectivity ratio | 0.24
O=C(CNCC1CCCCC1)Nc1cc(C(F)(F)F)ccc1Cl | PFF0160c E182D | enzyme activity, DCIP colorimetric |  |  | reference: E182D mutant over wild type | IC50 ratio | 9.2
COc1ccc(N2C(=O)N(c3c(C)cccc3Cl)Cc3cnc(Nc4ccc(C5CCN(C)CC5)cc4OC)nc32)nc1 | AXL (Homo sapiens, UniProt P30530) | kinase activity |  | 0.5 µM |  | inhibition | 11%
CC(=O)O[C@H]1C[C@@H]2CC[C@@H]3[C@H](CC[C@@]4(C)[C@H]3C[C@H]([N+]3(C)CCCCC3)[C@@H]4OC(C)=O)[C@@]2(C)C[C@@H]1[N+]1(C)CCCCC1 | ACHE |  | biochemical | concentration not given |  | activity class | inactive
COc1ccc2c3c([nH]c2c1)CCN(C)CC3.O=C(O)/C=C/C(=O)O | Neuronal acetylcholine receptor; alpha3/beta4 (Rattus norvegicus, UniProt P04757+P12392) | ion current, inhibitor, two-electrode voltage clamp | Xenopus laevis oocytes, rat | together with: 100 µM acetylcholine |  | Hill coefficient | 2.2 ± 0.3
CCCCC(=O)O | medium-chain acyl-CoA synthetase A461K | substrate |  |  |  | Km | 330 ± 30 µM
Nc1ncc(-c2nc(N3CCOCC3)nc(N3CCOCC3)n2)c(C(F)F)n1 | CSNK1A1L (Homo sapiens, UniProt Q8N752) | KINOMEscan |  | 10 µM |  | remaining binding | 74%
O=C(Nc1cccnn1)N1CCC(=Cc2cccc(Oc3ccc(C(F)(F)F)cn3)c2)CC1 | KATP channel, hamster | binding |  | 50 µM, together with: [3H]glyburide |  | inhibition | 3%
CC[C@@H](C)[C@@H](NC(=O)[C@@H](Cc1ccc(O)cc1)NC(=O)[C@H]1CCCN1C(=O)[C@@H](CCCNC(=N)N)NC(=O)[C@H](N)Cc1c[nH]cn1)C(=O)N[C@H](C)C(=O)N[C@H](Cc1c[nH]cn1)C(=O)N[C@H](CCCNC(=N)N)C(=O)N[C@H](CCCCNC(=O)c1cccc(S(=O)(=O)F)c1)C(=O)N[C@H](Cc1ccc(O)cc1)C(=O)N[C@H](CO)C(=O)N[C@H](Cc1ccccc1)C(N)=O | Transferrin receptor protein 1 (Tfrc, Mus musculus, UniProt Q62351) | flow cytometry | DC2.4 | 24 h, pH 6, replicate 2, unit not given | reference: 0 h | surface TFRC expression | 0.471
Nc1nc2c(ncn2[C@@H]2O[C@@H]3COP(=O)(O)O[C@H]4[C@@H](O)[C@H](n5cnc6c(=O)[nH]c(N)nc65)O[C@@H]4COP(=O)(O)O[C@H]3[C@H]2O)c(=O)[nH]1 | Cell cycle histidine kinase CckA, G318A; cytoplasmic region (Caulobacter vibrioides, UniProt Q9X688, G318A) | binding, ITC |  | together with: ADP 5 mM |  | ΔH | 845 ± 46.6 cal/mol
C[C@H]1CN(c2n[nH]c3nc(N[C@H]4CC[C@H](NS(=O)(=O)CCC(F)(F)F)CC4)ncc23)CCO1 | DARS1 (Homo sapiens, UniProt P14868) | Kinobeads competition, item: DARS |  | 20 µM, unit not given | reference: vehicle | remaining binding | 1.26
COc1ncccc1-c1cnn2ccc(N3CCN(C(=O)OC(C)C)CC3)nc12 | Ribosomal protein S6 kinase alpha-5, C-terminal kinase domain (RPS6KA5, Homo sapiens, UniProt O75582) | KINOMEscan binding |  | 1 µM | reference: untreated control | remaining binding | 67%
[2H]c1c([2H])c([C@]2([2H])CCCN2C(=O)C(C)(C)Oc2ccc3cn[nH]c3c2)c([2H])c([2H])c1C([2H])([2H])[2H] | Non-receptor tyrosine-protein kinase TYK2, JH2 pseudokinase domain (TYK2, Homo sapiens, UniProt P29597) | KINOMEscan |  | 1 µM | reference: DMSO control | remaining binding | 76%
C[C@@H](NCCCc1cccc(C(F)(F)F)c1)c1cccc2ccccc12 | ACHE |  | biochemical | concentration not given |  | activity class | inactive
CC(=O)Nc1sc(C)c(C)c1CN1CCc2ccccc2C1 | PFF0160c E182D | enzyme activity, DCIP colorimetric |  |  | reference: E182D mutant over wild type | IC50 ratio | 5
O=P1(NCCCl)OCCCN1CCCl (centres unmarked) | Nuclear receptor subfamily 2 group C member 2, ligand-binding domain (Homo sapiens, UniProt P49116) | SPR imaging |  | 600 nM |  | koff | 5.48e-06 s⁻¹
